Experimental data from different studies.
Numbered parts are unrelated; each lists some results of a single study.
Sequence of UniProt Q92985 (whole entry, unmodified, looked up): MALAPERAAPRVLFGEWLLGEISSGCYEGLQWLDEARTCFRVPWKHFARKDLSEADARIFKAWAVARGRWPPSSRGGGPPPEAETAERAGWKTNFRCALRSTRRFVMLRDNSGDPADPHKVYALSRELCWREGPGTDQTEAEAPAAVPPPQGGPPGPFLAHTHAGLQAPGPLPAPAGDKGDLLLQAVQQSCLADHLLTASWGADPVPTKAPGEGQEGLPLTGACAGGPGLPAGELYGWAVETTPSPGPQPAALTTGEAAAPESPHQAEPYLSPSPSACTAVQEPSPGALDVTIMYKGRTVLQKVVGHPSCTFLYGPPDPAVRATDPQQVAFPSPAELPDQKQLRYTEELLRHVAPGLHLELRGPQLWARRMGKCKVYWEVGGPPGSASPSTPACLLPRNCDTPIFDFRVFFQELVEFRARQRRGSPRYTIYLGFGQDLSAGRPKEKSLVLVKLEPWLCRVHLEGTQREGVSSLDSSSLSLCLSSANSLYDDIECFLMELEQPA

Study 1 — method: protein binding microarray; form: double-stranded DNA, one strand shown; medium: in vitro; concentration: not given; relative to: not given; direction: higher = stronger binding
Target: Histone acetyltransferase KAT6A, winged helix 2, GST fusion (KAT6A, Homo sapiens, UniProt Q92794, residues 85-181)
Notes: 8-mer, flanks averaged, mean of 2 arrays, mostly near background
Target sequence (chain): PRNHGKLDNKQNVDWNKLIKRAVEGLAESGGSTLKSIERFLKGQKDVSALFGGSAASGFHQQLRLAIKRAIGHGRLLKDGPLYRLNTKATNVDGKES
| Sequence | E-score |
| --- | --- |
| AAGGCGGC | 0.147 |
| CTCCCTAA | 0.00611 |
| ACTATTTG | -0.0905 |

Study 2 — method: universal PBM; form: double-stranded DNA, one strand shown; medium: in vitro; concentration: 600 nM; direction: higher = stronger binding
Target: Sal-like protein 4, full length isoform A (SALL4, Homo sapiens, UniProt Q9UJQ4, residues 1-1053)
Sequence of UniProt Q9UJQ4 (whole entry, looked up): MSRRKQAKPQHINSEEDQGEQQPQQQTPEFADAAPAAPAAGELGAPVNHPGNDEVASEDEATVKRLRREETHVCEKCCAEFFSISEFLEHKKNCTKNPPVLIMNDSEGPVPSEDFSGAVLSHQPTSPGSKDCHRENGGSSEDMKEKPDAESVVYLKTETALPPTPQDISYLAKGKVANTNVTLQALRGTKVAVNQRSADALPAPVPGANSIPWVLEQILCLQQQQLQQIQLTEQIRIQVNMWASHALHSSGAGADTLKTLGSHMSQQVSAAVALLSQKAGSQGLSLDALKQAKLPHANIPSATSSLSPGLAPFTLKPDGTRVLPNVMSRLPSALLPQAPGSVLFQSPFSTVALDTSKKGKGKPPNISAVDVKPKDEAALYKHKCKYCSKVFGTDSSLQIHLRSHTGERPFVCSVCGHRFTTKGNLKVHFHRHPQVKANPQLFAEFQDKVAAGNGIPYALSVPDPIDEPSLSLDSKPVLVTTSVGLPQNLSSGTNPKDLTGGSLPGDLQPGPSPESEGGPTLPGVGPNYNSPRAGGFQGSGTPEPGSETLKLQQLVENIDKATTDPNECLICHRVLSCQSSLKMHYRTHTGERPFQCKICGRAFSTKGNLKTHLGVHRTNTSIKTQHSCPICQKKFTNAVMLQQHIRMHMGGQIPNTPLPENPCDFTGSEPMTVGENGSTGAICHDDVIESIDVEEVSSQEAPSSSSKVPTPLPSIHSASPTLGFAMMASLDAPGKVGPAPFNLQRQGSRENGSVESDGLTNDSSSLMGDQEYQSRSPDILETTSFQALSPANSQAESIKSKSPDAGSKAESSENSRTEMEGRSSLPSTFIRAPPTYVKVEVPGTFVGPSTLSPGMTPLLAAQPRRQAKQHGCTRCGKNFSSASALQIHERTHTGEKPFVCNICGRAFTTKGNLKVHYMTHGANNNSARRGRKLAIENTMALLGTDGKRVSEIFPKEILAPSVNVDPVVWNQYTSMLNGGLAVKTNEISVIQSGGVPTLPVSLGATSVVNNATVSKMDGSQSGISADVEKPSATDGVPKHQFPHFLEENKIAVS
Notes: 8-mer, flanks averaged, mean of replicates
| Sequence | E-score |
| --- | --- |
| ATCATGAG | 0.0959 |
| CGCTATGA | 0.0574 |
| CCGGCATC | -0.279 |

Mixed results
| Substance | target | test | test system | setting | scale | measurement | value |
| --- | --- | --- | --- | --- | --- | --- | --- |
| GCCTAGCACGACGGTTTAGACTATCGGGACGTGCTAGTCTTGATTCGCTTGACGCTGCTG | Interferon regulatory factor 7, full length, phosphomimetic (IRF7, Homo sapiens, UniProt Q92985, residues 1-503, S471D/S472D/S475D/S476D/S477D/S483D/S484D/S487D) | protein-binding microarray | double-stranded DNA, one strand shown, in vitro | 2200 nM top, 60-bp whole probe, with: salmon DNA 0.4 mg/ml | relative to: random background probes, higher = stronger binding | fitted relative affinity | 0.414 z-score |
| PhoQ, residues 284 288 289 292 302 303 ASSHFY | PhoP, residues 12 14 15 18 19 IQSYL (Escherichia coli, UniProt P23836) | Sort-seq, measured: YFP reporter | E. coli | PhoQ-PhoP variant library, with: 10 µM Mg2+ | relative to: high Mg2+ state, higher = stronger signaling | fold induction | 25.8 |
| GCCTAGCACGACGGTATCGACACTGTGGACGTGCTAGTCTTGATTCGCTTGACGCTGCTG | Interferon regulatory factor 5, full length, phosphomimetic (IRF5, Homo sapiens, UniProt Q13568-2, residues 1-514, S451D/S453D/S456D/S462D) | protein-binding microarray | double-stranded DNA, one strand shown, in vitro | 940 nM top, 60-bp whole probe, with: salmon DNA 0.4 mg/ml | relative to: random background probes, higher = stronger binding | fitted relative affinity | 3.89 z-score |
